{"data": "Published values pooled from the literature", "note": "Every numbered part comes from another study and shows a few of its results, in no order."}
{"data": "Study 1", "target": "TAR DNA-binding protein 43, full length, His tag (TARDBP, Homo sapiens, UniProt Q13148, residues 1-414)", "method": "RNA Bind-n-Seq", "form": "RNA", "medium": "in vitro", "concentration": "20 nM", "setting": "6-mer, flanks averaged, single round", "added": "150 mM LiCl", "relative to": "input library", "direction": "higher = stronger binding"}
{"Oligonucleotide": "GAAUCG", "6-mer enrichment (R)": 0.911}
{"Oligonucleotide": "GGUUUA", "6-mer enrichment (R)": 1.09}
{"Oligonucleotide": "AUUAUA", "6-mer enrichment (R)": 1.04}
{"Oligonucleotide": "UGCAGG", "6-mer enrichment (R)": 1.06}
{"Oligonucleotide": "AGCCUU", "6-mer enrichment (R)": 0.977}
{"data": "Study 2", "cell line": "HEK-293T/ACE2", "concentration": "concentration not given", "time": "16 (unit not given)", "relative to": "vehicle"}
{"Structure (SMILES)": "CCCCOc1ccc(OCCCN2CCOCC2)cc1", "viability [%]": 101}
{"Structure (SMILES)": "CN(C)CC(c1ccc(O)cc1)C1(O)CCCCC1 (centres unmarked)", "viability [%]": 106}
{"Structure (SMILES)": "CCc1cc2c(cc1N1CCC(N3CCOCC3)CC1)C(C)(C)c1[nH]c3cc(C#N)ccc3c1C2=O", "viability [%]": 97.4}
{"Structure (SMILES)": "COc1ccc(CN=c2[nH]c(N3CCC[C@H]3CO)ncc2C(=O)NCc2ncccn2)cc1Cl", "viability [%]": 101}
{"data": "Study 3", "target": "Replicase polyprotein 1ab, nsp13 helicase (rep, Severe acute respiratory syndrome coronavirus 2, UniProt P0DTD1)", "mode": "inhibitor", "concentration": "20 µM"}
{"SMILES": "O=C(O)CC(O)C(=O)O (centres unmarked)", "inhibition [%]": 3.01}
{"SMILES": "NS(=O)(=O)Oc1ccc2c3c(c(=O)oc2c1)CCCCC3", "inhibition [%]": 5.64}
{"SMILES": "CC(C)C[C@@H](C(=O)N[C@@H](Cc1ccc(OCc2ccccc2)cc1)C(=O)NC(C)(C)C)N(C)Cc1ccc(C(C)(C)C)cc1", "inhibition [%]": 1.92}
{"SMILES": "CC(C)C(=O)c1ccc(O)c(O)c1", "inhibition [%]": -0.45}
{"SMILES": "N[C@@H](Cc1ccc(I)cc1)C(=O)O", "inhibition [%]": 1.04}
{"SMILES": "Cc1cncc(CN2CCC(=C3c4ccc(Cl)cc4CCc4cccnc43)CC2)c1", "inhibition [%]": 6.98}
{"SMILES": "Cc1[nH]c2ccc(O)cc2c1CCN", "inhibition [%]": -3.48}
{"SMILES": "COc1cc(OC2CCN(C)CC2)ccc1Nc1ncc2c(n1)n(C1CCCC1)c(=O)n2C", "inhibition [%]": 7.11}
{"SMILES": "c1cc(-c2sc(-c3ccncc3)c(-c3ccncc3)c2-c2ccncc2)ccn1", "inhibition [%]": 4.08}
{"SMILES": "O=C(NC1CCC1)c1ccc(C#Cc2cccc(F)c2)nc1", "inhibition [%]": 5.85}
{"SMILES": "CN1[C@@H]2CC[C@H]1C[C@@H](OC(=O)c1c[nH]c3ccccc13)C2", "inhibition [%]": -1.51}
{"SMILES": "Cc1ccc(C(=O)C(C)CN2CCCCC2)cc1 (centres unmarked)", "inhibition [%]": 9}
{"SMILES": "CCCc1nc2c(C)cc(-c3nc4ccccc4n3C)cc2n1Cc1ccc(-c2ccccc2C(=O)O)cc1", "inhibition [%]": 10.7}
{"SMILES": "Nc1ccc(C(=O)Nc2cccc(-c3nc(N4CCOCC4)c4oc5ncccc5c4n3)c2)cn1", "inhibition [%]": 4.19}
{"SMILES": "c1cc2c3c(c1)c1c(n3CCNC2)CCCC1", "inhibition [%]": 3.89}
{"SMILES": "COc1cc2c(=O)c(-c3ccc(O)cc3)coc2cc1O", "inhibition [%]": 2.34}
{"SMILES": "CCCCCCCCCC(=O)OCCN1CCN(CCCN2c3ccccc3Sc3ccc(C(F)(F)F)cc32)CC1", "inhibition [%]": -3.15}
{"SMILES": "C[C@H](Cc1ccc(OCC(=O)O)cc1)NC[C@H](O)c1cccc(Cl)c1", "inhibition [%]": 1.63}
{"SMILES": "Cc1ccc(S(=O)(=O)NC(=O)NN2CC3CCC[C@@H]3C2)cc1 (stereo in doubt)", "inhibition [%]": -0.62}
{"SMILES": "Nc1ccc(S(=O)(=O)c2ccc(N)cc2)cc1", "inhibition [%]": -1.96}
{"SMILES": "C=C1CC[C@@H]2[C@](C)(CO)[C@H](O)CC[C@@]2(C)[C@@H]1C/C=C1/C(=O)OC[C@H]1O", "inhibition [%]": 3.56}
{"SMILES": "C[C@]12N[C@H](Cc3ccccc31)c1ccccc12", "inhibition [%]": -0.14}
{"SMILES": "CCn1cnc2c(Nc3cccc(Cl)c3)nc(N[C@@H]3CCCC[C@@H]3N)nc21", "inhibition [%]": 4.51}
{"SMILES": "O=C1C(CC[S+]([O-])c2ccccc2)C(=O)N(c2ccccc2)N1c1ccccc1 (centres unmarked)", "inhibition [%]": 2.73}
{"SMILES": "C[C@H]1[C@H](C)CC[C@]2(C(=O)O)CC[C@]3(C)C(=CC[C@@H]4[C@@]5(C)C[C@@H](O)[C@H](O)C(C)(C)[C@@H]5CC[C@]43C)[C@H]12", "inhibition [%]": -1.29}
{"data": "Study 4", "target": "PABPC1L2, full length, GST fusion (mouse, UniProt A0ABA7IW68)", "method": "RNAcompete", "form": "RNA", "medium": "in vitro", "concentration": "20 nM", "setting": "7-mer, probes averaged, single round", "relative to": "mean of 7-mers", "direction": "higher = stronger binding", "Target sequence (chain)": "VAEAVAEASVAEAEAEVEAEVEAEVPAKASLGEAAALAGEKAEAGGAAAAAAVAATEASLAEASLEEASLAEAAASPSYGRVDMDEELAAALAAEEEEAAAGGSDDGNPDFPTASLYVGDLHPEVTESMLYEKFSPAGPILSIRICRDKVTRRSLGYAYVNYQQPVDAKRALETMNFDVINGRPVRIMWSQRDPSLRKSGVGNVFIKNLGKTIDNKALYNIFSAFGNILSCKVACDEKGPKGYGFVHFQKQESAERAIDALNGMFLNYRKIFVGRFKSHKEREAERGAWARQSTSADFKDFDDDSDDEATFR"}
{"Oligonucleotide": "CGGUUCA", "7-mer Z-score": -0.119}
{"Oligonucleotide": "UUUUCUU", "7-mer Z-score": -0.228}
{"Oligonucleotide": "CUGCGUG", "7-mer Z-score": -0.22}
{"Oligonucleotide": "AACGCUA", "7-mer Z-score": -0.108}
{"Oligonucleotide": "CAAAUCU", "7-mer Z-score": -0.0627}
{"Oligonucleotide": "UUGUUGC", "7-mer Z-score": -0.318}
{"Oligonucleotide": "UCCGACU", "7-mer Z-score": -0.298}
{"Oligonucleotide": "AACCGAU", "7-mer Z-score": 0.0225}
{"data": "Study 5", "target": "Centromere-binding protein 1, full length, His-tagged (CBF1, Saccharomyces cerevisiae, UniProt P17106, residues 1-351)", "method": "competition protein-binding microarray", "form": "double-stranded DNA, one strand shown", "medium": "in vitro", "concentration": "2 µM", "setting": "whole 60-bp probe, lowest competitor level", "added": "Pho4 competitor, 0.05 µM", "direction": "higher = stronger binding", "all sequences stand within": "… GTCTTGATTCGCTTGACGCTGCTG", "UniProt P17106, sequence (whole entry, looked up)": "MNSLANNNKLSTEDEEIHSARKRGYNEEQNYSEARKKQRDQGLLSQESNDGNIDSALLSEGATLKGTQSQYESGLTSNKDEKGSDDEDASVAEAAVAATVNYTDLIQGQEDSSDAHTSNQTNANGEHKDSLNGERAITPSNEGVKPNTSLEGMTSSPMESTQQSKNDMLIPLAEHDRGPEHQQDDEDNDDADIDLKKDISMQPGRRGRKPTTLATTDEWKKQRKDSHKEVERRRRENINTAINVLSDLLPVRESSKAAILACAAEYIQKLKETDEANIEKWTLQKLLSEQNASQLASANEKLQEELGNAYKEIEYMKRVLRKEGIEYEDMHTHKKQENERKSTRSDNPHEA"}
{"Oligonucleotide": "AGAGGGCGGCACCATCACGATCCCTCTGCCTTTGAA", "fluorescence intensity [a.u.]": 76.8}
{"Oligonucleotide": "AATAAATACGAGCATCACAATACCCCAAGAGGAGAA", "fluorescence intensity [a.u.]": 73.5}
{"Oligonucleotide": "AGCACCACAGCGTACCATGTGCGCTACGAGGCCTCA", "fluorescence intensity [a.u.]": 89}
{"Oligonucleotide": "CTCGCATAACGCAGGCACAGGTCTCGAACTGCGGTG", "fluorescence intensity [a.u.]": 58.2}
{"Oligonucleotide": "AGGAGCCCTGATTTCTTCGTGCGATATCGGTGCGGG", "fluorescence intensity [a.u.]": 63.1}
{"Oligonucleotide": "AAGGACTCTAACTGGCACGTCTGGTATAGCGGACAG", "fluorescence intensity [a.u.]": 73.6}
{"Oligonucleotide": "CATACCCAACCTTGGTATGTGGGTGAAGATATTTGT", "fluorescence intensity [a.u.]": 70.8}
{"Oligonucleotide": "CTTTCCCGATCTTGGAGTGTGGGTGTAGCACATTTG", "fluorescence intensity [a.u.]": 73.3}
{"data": "Study 6", "target": "Replicase polyprotein 1ab, main protease (rep, Severe acute respiratory syndrome coronavirus 2, UniProt P0DTD1)", "observed": "enzyme activity", "mode": "inhibitor", "concentration": "20 µM", "setting": "primary screen"}
{"Compound": "O=C(O)c1cc(N2N=C(C(F)(F)F)/C(=C/c3ccc(-c4ccccc4)o3)C2=O)ccc1Cl", "inhibition": "80.6%"}
{"Compound": "CCCCCCCCN=c1ccn(CCCCCCCCCCn2ccc(=NCCCCCCCC)cc2)cc1", "inhibition": "89.8%"}
{"Compound": "COc1ccc2[n-]c([S@@+]([O-])Cc3ncc(C)c(OC)c3C)nc2c1.COc1ccc2[n-]c([S@@+]([O-])Cc3ncc(C)c(OC)c3C)nc2c1.O.O.O.[Mg+2]", "inhibition": "94.7%"}
{"note": "Repeated from above (study 3):"}
{"SMILES": "CCCCCCCCCC(=O)OCCN1CCN(CCCN2c3ccccc3Sc3ccc(C(F)(F)F)cc32)CC1", "inhibition [%]": -3.15}
{"SMILES": "C=C1CC[C@@H]2[C@](C)(CO)[C@H](O)CC[C@@]2(C)[C@@H]1C/C=C1/C(=O)OC[C@H]1O", "inhibition [%]": 3.56}
{"SMILES": "O=C(O)CC(O)C(=O)O (centres unmarked)", "inhibition [%]": 3.01}
{"SMILES": "Cc1ccc(C(=O)C(C)CN2CCCCC2)cc1 (centres unmarked)", "inhibition [%]": 9}
{"SMILES": "Nc1ccc(C(=O)Nc2cccc(-c3nc(N4CCOCC4)c4oc5ncccc5c4n3)c2)cn1", "inhibition [%]": 4.19}
{"SMILES": "CCn1cnc2c(Nc3cccc(Cl)c3)nc(N[C@@H]3CCCC[C@@H]3N)nc21", "inhibition [%]": 4.51}
{"SMILES": "C[C@H](Cc1ccc(OCC(=O)O)cc1)NC[C@H](O)c1cccc(Cl)c1", "inhibition [%]": 1.63}
{"SMILES": "Cc1[nH]c2ccc(O)cc2c1CCN", "inhibition [%]": -3.48}
